# Measurements pooled from the literature.
# Every numbered part comes from another study and shows a few of its results, in no order.

# Study 1
# Target: Sal-like protein 4, full length isoform A (SALL4, Homo sapiens, UniProt Q9UJQ4, residues 1-1053)
# UniProt Q9UJQ4, sequence (whole entry, looked up): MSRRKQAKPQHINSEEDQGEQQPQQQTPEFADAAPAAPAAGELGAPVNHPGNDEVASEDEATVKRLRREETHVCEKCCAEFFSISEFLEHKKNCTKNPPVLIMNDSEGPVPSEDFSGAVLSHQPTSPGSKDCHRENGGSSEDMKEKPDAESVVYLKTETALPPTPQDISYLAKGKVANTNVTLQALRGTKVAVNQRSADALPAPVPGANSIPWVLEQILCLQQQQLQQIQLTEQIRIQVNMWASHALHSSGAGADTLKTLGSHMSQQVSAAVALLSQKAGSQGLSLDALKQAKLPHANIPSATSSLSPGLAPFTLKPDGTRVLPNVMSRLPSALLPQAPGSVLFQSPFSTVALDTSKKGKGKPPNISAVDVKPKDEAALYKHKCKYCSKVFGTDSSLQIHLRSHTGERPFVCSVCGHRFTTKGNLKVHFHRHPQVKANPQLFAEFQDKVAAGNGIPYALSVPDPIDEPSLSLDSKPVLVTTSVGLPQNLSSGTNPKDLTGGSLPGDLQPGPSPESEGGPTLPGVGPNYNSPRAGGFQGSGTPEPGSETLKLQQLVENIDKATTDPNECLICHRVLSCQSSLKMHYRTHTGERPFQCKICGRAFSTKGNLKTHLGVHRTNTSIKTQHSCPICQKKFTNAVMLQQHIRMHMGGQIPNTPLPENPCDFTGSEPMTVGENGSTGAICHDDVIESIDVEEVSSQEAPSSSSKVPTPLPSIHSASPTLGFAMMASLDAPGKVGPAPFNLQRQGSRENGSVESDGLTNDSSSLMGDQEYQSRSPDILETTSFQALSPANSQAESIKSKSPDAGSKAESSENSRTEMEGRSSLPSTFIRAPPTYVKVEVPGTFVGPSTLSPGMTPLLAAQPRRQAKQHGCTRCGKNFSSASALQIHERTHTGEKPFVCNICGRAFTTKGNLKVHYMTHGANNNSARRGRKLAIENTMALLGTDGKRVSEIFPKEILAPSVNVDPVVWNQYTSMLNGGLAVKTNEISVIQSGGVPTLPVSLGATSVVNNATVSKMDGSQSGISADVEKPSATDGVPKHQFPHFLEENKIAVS
# Method: universal PBM
# Form: double-stranded DNA, one strand shown
# Matrix: in vitro
# Tested at: 600 nM
# Setting: 8-mer, flanks averaged, mean of replicates
# Direction: higher = stronger binding
Oligonucleotide,E-score
CATAGGGG,-0.125
CGCAGCTA,-0.284
CACAGGTA,-0.021
GCCCTTAC,-0.122
TAAGTACA,0.252
AAGACTTC,-0.0642
AATTGTGC,0.151
ACCTACGA,0.0721
ATAGCGAA,0.295
AACCAGGA,-0.0899
GCCGACGC,-0.266
CGGCTTTC,-0.235
CCAAGCGA,-0.207
CCATTCTA,0.0763
AGTCAGCC,-0.225
CAAGCAGC,-0.124

# Study 2
# Target: Histone acetyltransferase KAT6A, both winged helices, GST fusion (KAT6A, Homo sapiens, UniProt Q92794, residues 1-181)
# Method: protein binding microarray
# Form: double-stranded DNA, one strand shown
# Matrix: in vitro
# Tested at: not given
# Setting: 8-mer, flanks averaged, mean of 2 arrays, mostly near background
# Reference: not given
# Direction: higher = stronger binding
# Residues (chain): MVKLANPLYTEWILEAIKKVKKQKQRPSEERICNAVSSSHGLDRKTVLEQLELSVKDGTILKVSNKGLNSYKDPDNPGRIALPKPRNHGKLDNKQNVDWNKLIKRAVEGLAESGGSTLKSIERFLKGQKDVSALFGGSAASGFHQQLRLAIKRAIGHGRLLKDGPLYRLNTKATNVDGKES
Oligonucleotide,E-score
CATTCAGA,-0.0728
AAATAACT,-0.0558
CAAGGCTG,-0.248
CACTGAAG,-0.0372
AAGGGGAG,-0.196
GTCTTTAA,-0.167
ATCGACAA,-0.124
ACAGTATC,-0.108
CCGCTGAG,0.121
CTGAACGC,0.145
TCCCCGCA,0.185
ACCCGGGC,0.256
ATTGTTGA,-0.0692
AGATGCAG,-0.215
ACGCCTTG,0.0715
AGTTGGCA,-0.188
GCAATAAA,0.00583
ATAGAGAC,-0.138
CCATCTCA,-0.153
CGCGGAGA,0.296
ACAACGTC,-0.0471
CTACTGAA,-0.107
TCTGGAAA,-0.117
AAATCCTC,-0.175
GTTTTTGA,-0.0571

# Study 3
# Target: RNA binding protein fox-1 homolog 2, RRM domain, GST-SBP tag (RBFOX2, Homo sapiens, UniProt O43251-10, residues 100-194)
# Method: RNA Bind-n-Seq
# Form: RNA
# Matrix: in vitro
# Tested at: 365 nM
# Setting: natural RNA segment, single round, ends assumed
# Reference: no-protein control
# Direction: higher = stronger binding
# Shared flanks, not repeated: GGGAGUUCUACAGUCCGACGAUC … UGGAAUUCUCGGGUGCCAA
# Construct (chain): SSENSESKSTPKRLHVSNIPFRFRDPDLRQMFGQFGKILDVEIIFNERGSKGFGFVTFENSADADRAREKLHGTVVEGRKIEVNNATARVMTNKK
Oligonucleotide,RBNS enrichment (R)
AUCUUUAAACAUGGGAAUAUGUUUUCAAGACAAUUUAUAGGACAUACUUAUGUAGUUGGUGAGGUCUUCUCAAAAGUAUCUACCUUUGUUAGAUAAUAACAAGUGAUUAA,0.369
CUGUCUCUCUUUGAGAACAAUGAAGGCCACUCUCCACUGGGGCCAUCCCUCCCCACUCUGCCUCCUACCCCAUCUGUCCCACAUCCUAUUCCUCCCAGGAGCCCAUGCUC,0.636
GCACUUUUGGCUAAAAGUGCGAAUGGAACAUUUUUAGUUGUAGUCUGGGGAAGAAAAGUUAAUGAGGUUUUAAAAAUCAGGUCUUGUCGUGUGGGGAGCUUGCUCCCCCA,0.592
UUUAUUUUUAGAUAGGGUUUCAGGUAGAUCUGCAGGCCUUGACCUUACUAUAUAGUUGAAGAUGGCCUUGACCUCCUGACCCCUGCCUCAGCCAUGCCUGGCUAGGACAG,0.357
CCCCAACACCACUGCCACCACCCCUCUUUUUAUCCUGGUGUGAAACAAUGGUAAUUUGAUAUAUGGUAUUUAUAUUGGCAUUUUUCAACCCAGUGUCACUAGAUGUCACA,0.502
UAAAAUAUAUUUUAACCAUCCAGAGAUGGUGUUGAAUCCUUCAACAAAUGUGUCAUUCAAAACAGUAAUUAGGGAAAUCCCACAGAUGAAAAAUGCCUUAGUGAUAAGCU,0.488
UGGUGUUUCCAGUUUGAUGUUGCUGGGUGGUUGAGUGAGUGAAUUUUCAUGUGGCUGGGUGGGUUUUUGCCUUUUUCUCUUGCCCUGUUCCUGGUGCCUUCUGAUGGGGC,0.835
CCAAAGGUCAUCCCGGUCCACGGCAGGUCCCCUGUGUGGGGGUCUCGAAACAUGUGCAUGGCGUCUGUACGUGGCAGGUGGCAGGUGGUGUUGGCAAUGGUCCUGGAGGG,1.93
GUGGCUGGGGCCUGACACUGAGCUGUAGGGAAACUGAACUGUGAGGACCUCUGGUGAGAGGCCAGUGCCCUGCCCCACCCUGGAGCUUCAAAUAAAGAGCUUUUUACCCC,0.302
UCCUGUUUAUUAGAGAGUAUGCUAAUAAAAGUCCUUGUAAUAGCUCACAGCCACCUAAGUGCGCGGUGUUUUGUUGUUUGACUGUGUUAGAGAAGUUUGAAUGUUUGUGU,3.32
CUUGAAAGCAUCUGUUUGAGGGAAAGGUCUCUGGGCAAGCAAGUGGUUAUUUGGAUUGCUUGCUUCCCUUUUUCCACCUGGGACAUUGUAAUCAUAAAAUAACAGUAAAU,0.336
CUUAUGGAUUGACUAGAUUCAUAUCACUUUCUCCUCUAAAAUAUUGUAGUAUUUUCUUAUAGUUAUAACUCAAAAAUAUCAAGCAGACAGAGAAUUUAGGCAGUGCAAAG,0.595

# Study 4
# Target: Prothrombin, mature alpha-thrombin (F2, Homo sapiens, UniProt P00734)
# Method: aptamer microarray, sandwich
# Form: DNA with 2'F-ANA
# Matrix: in vitro
# Tested at: 200 nM
# Setting: whole 15-mer aptamer, many near background
# Together with: Cy3 exosite-II aptamer, 400 nM
# Direction: higher = stronger binding
# Oligonucleotide: GGTTGGTGTGGTTGG
Modification,mean fluorescence intensity
2'F-ANA at 3 4 5 8 11 12 14,57.6 a.u.
2'F-ANA at 3 8 9 10 13 15,531 a.u.
2'F-ANA at 1 5 7 10 11 12 14,48.1 a.u.
2'F-ANA at 5 9 11 12 13 14,44.4 a.u.
2'F-ANA at 1 3 4 6 7 8 9 11 15,155 a.u.
2'F-ANA at 1 2 3 5 7 10 12 13 14,43.8 a.u.
2'F-ANA at 1 2 6 7 10 11 12 13,97.2 a.u.
2'F-ANA at 2 3 4 5 7 10 12 13 15,54 a.u.
2'F-ANA at 3 4 5 10 14,56.9 a.u.
2'F-ANA at 3 4 7 8 9 11 12 14,334 a.u.
2'F-ANA at 2 6 7 8 9 11 15,343 a.u.
2'F-ANA at 6 7 9 11 12 14 15,178 a.u.
2'F-ANA at 2 4 5 7 8 9 12 15,148 a.u.
2'F-ANA at 2 3 5 9 10 12,62.5 a.u.
2'F-ANA at 3 4 13,600 a.u.
2'F-ANA at 3 4 6 7 8 10 11 13 14,164 a.u.
2'F-ANA at 2 4 5 7 9 13 15,51.3 a.u.
2'F-ANA at 1 2 3 4 5 7 8 11 14,43.4 a.u.
2'F-ANA at 1 2 3 4 5 6 8 12 14 15,66.2 a.u.
2'F-ANA at 1 3 4 5 6 7 8 9 10 11 13 15,52.1 a.u.
2'F-ANA at 1 2 6 8 9 10 11 12 13 14,47.3 a.u.
2'F-ANA at 2 3 4 5 7 8 10 11 12,58.8 a.u.
2'F-ANA at 2 3 5 7 8 11 12 13 14 15,123 a.u.

# Study 5
# Target: Interferon regulatory factor 7, full length, phosphomimetic (IRF7, Homo sapiens, UniProt Q92985, residues 1-503, S101K/S471D/S472D/S475D/S476D/S477D/S483D/S484D/S487D)
# UniProt Q92985, sequence (whole entry, unmodified, looked up): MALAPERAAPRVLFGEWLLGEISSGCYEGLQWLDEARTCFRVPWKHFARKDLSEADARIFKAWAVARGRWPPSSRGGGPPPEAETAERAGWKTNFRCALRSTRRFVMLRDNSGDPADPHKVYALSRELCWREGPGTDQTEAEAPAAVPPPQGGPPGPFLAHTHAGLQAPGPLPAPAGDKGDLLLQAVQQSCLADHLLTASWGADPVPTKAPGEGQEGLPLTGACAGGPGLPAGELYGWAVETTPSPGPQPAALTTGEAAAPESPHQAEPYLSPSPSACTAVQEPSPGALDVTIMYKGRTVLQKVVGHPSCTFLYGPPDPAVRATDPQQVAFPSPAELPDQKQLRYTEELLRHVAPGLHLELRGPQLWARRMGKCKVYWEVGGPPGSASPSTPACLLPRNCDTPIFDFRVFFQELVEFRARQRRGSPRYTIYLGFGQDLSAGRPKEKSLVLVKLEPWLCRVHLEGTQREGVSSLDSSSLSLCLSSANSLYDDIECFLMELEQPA
# Method: protein-binding microarray
# Form: double-stranded DNA, one strand shown
# Matrix: in vitro
# Tested at: 250 nM
# Setting: 60-bp whole probe
# Together with: salmon DNA 0.4 mg/ml
# Reference: random background probes
# Direction: higher = stronger binding
# Shared flanks, not repeated: GCCTAGCAC … GTCTTGATTCGCTTGACGCTGCTG
Oligonucleotide,log fluorescence
TTTCTTTTATGCTCTTTCTACGTGCTA,1.45 z-score
TCACTTTTTTTTTTCCCACTGTGCTAG,1.46 z-score
TTAGGTTTGGGGTTTCGGTTAGTGCTA,5.17 z-score
TTAGATTTCGGGCCTGGATTAGTGCTA,0.447 z-score
GACGGTTTCGCCTATCGGGACGTGCTA,4.04 z-score
TCACCTAGCCATTATGAGACTGTGCTA,-0.114 z-score
TGAGGTTTCGGACTGGGTTAGTGCTAG,3.43 z-score
GACGATTTCAGTTCCGACACGTGCTAG,0.793 z-score
TCATGTTTGTGTGTGTAACTGTGCTAG,0.111 z-score
CTGCCTGTCCATTCCTTCCAGTGCTAG,-0.0618 z-score
TTAGGTTTCGGTATCAGTTAGTGCTAG,10.6 z-score
TTAGGTCTCCTTATCCTTTGGTGCTAG,0.307 z-score
TTAGATCCCAGTCTCGATTAGTGCTAG,1.91 z-score
GACGGACTAGGGACTGGGGACGTGCTA,0.0264 z-score
TTAGGTTTCGGGAATGGGTTAGTGCTA,2.88 z-score
AACGGTATCGACACTGGGGACGTGCTA,0.144 z-score
TTTTTTTTCTTTAAAAGTGAGTGCTAG,1.02 z-score
GACGGACAGGACTTTCGGGACGTGCTA,-0.669 z-score
TTAGATTTCGGGTTTCGATTGGTGCTA,9.14 z-score
TTCTTGCGGAGTTTCTTGCAGTGCTAG,-0.0701 z-score
CTTCCCCTCTAGGTTCTCTGAGTGCTA,1.07 z-score
TTAGAACTGGTGACTGGATTAGTGCTA,-0.65 z-score
GACGGTTTCGGGTATAGGGACGTGCTA,6.4 z-score
GACGGAATGCTACTGCTGACGTGCTAG,-0.805 z-score
GATGGTATCGGTATCGGGACGTGCTAG,1.5 z-score

# For quick reference, copied from above (study 2):
Oligonucleotide,E-score
AAATAACT,-0.0558
TCTGGAAA,-0.117
CAAGGCTG,-0.248
GCAATAAA,0.00583
TCCCCGCA,0.185
AAGGGGAG,-0.196
